Measurements gathered from unrelated publications.
Each line is one published result; not all experiments were run side by side. Numbers after ± are the reported error.

O=C(C[Se]C(=O)C12CC3CC(CC(C3)C1)C2)Nc1cccc(C(F)(F)F)c1  GI50 (NCI60 ovarian subpanel; cell growth, inhibitor; five-dose): 4.51 µM
CC(=O)OC[C@H]1O[C@@H](n2cc(CSc3nc4ccccc4n3Cc3cn([C@@H]4O[C@H](COC(C)=O)[C@@H](OC(C)=O)C(OC(C)=O)[C@H]4OC(C)=O)nn3)nn2)[C@H](OC(C)=O)C(OC(C)=O)[C@@H]1OC(C)=O (stereo in doubt)  cytotoxicity (HEK293; MTT; 62.5 ppm): 49.9%
CO[C@@H]1[C@@H](OC(N)=O)[C@@H](O)[C@H](Oc2ccc3c(O)c(NC(=O)c4ccc(O)c(CC=C(C)C)c4)c(=O)oc3c2C)OC1(C)C  colony count (DLD-1 BRCA2-/-; 300 µM, replicate 1): 0.1
CC(C)Cc1ccc(C(C)C(=O)[Se]CC(=O)Nc2cccc(C(F)(F)F)c2)cc1 (stereo not drawn)  GI50 (NCI60 ovarian subpanel; cell growth, inhibitor; five-dose): 1.92 µM
Nc1ncn([C@@H]2O[C@H](CO)[C@@H](O)[C@H]2O)c(=O)n1  inhibition (AML blasts, primary, RUNX1-mutated; CD34+ blast expansion; 810 nM, HUVEC co-culture): -4.44%
N#Cc1cccc(/C=C/C(=O)c2ccc(O)cc2)c1  fold change (U-87 MG; item: RPS18; concentration not given; relative to: untreated): 0.043
NC1=C(Cl)C(=O)c2ccccc2C1=O  selectivity index (MOLT-3; XTT; relative to: IC50 MRC-5 over IC50 MOLT-3): 2.23
CNS(=O)(=O)Nc1nccc(Cc2c(C)c3ccc(Oc4ncccc4F)cc3oc2=O)c1F  IC50 (MEG-01; cell viability; 7 days): > 1 µM
Cc1ccc([N+](=O)[O-])cc1S(=O)(=O)N(C)/N=C/c1cnc2ccc(Br)cn12  activation z-score (HuT78; NFAT immune response pathway, NanoString IPA; 50 nM, 10 h; direction not given): -3.96
O=C(Nc1nnc2c1c(-c1ccc(Cl)cc1)nc1sc(=Cc3ccco3)c(=O)n12)c1ccccc1 (mixture of isomers)  cell growth (SF-268; SRB; 10 µM, NCI60 single-dose screen; relative to: untreated): 42.2%
CCN(C(=O)c1cc(F)ccc1Oc1nncnc1N1CCC2(C1)CN([C@H](CCCN(C)CCOC)C(C)C)C2)C(C)C  GI50 (IMR-90; cell growth or viability; 7 days): > 10 µM
COc1ccc2c(c1)c(CC(=O)[Se]CC(=O)Nc1cccc(C(F)(F)F)c1)c(C)n2C(=O)c1ccc(Cl)cc1  mean growth percent (NCI60 ovarian subpanel; cell growth; 10 µM, 48 h, one-dose): -86%
O=[C]=[Mn-2]12(=[C]=O)(=[C]=O)[O]c3cc4c(cc3=[N+]1CCc1ccccc1)[O][Mn-2](=[C]=O)(=[C]=O)(=[C]=O)([N+]=4CCc1ccccc1)[n+]1ccc(cc1)C(=O)Oc1ccccc1OC(=O)c1cc[n+]2cc1  viability reduction (HEK293; MTT; 50 µM, 48 h, photolysed compound): 45%
CCCC(CCC)C(=O)OCc1cn(-c2cc3ccccc3oc2=O)nn1  growth (IGROV-1; NCI60 single dose; 10 µM): 96.8%
Cc1nc(=S)[nH]c(C)c1/N=N/c1nnc(S)[nH]1  inhibition (Vero; cell viability, MTT; 5.0 µg/mL): 21.6 ± 0.272%
O=C(C[Se]C(=O)c1ccc2ccccc2c1)Nc1cccc(C(F)(F)F)c1  mean growth percent (NCI60 non-small-cell lung subpanel; cell growth; 10 µM, 48 h, one-dose): -86.1%
CN1CCCNC(=O)c2cccc(c2)C(=O)NCCCN(C)CCCNc2cccc3c2C(=O)c2cccc(c2C3=O)NCCC1  log2 fold change (SAS; RNA-Seq, item: ZNF462 mRNA; 1 µM, 6 h; relative to: untreated cells): -1.18
COC1CN([C@H]2CC[C@H]([C@@]3(C)Oc4c(Cl)cc(C(=O)NCc5c(SC)cc(C)[nH]c5=O)c(C)c4O3)CC2)C1  GI50 (J82; cell growth or viability, ATP luminescence; 12 days): > 10 µM
Cc1ncsc1-c1ccc(C(C)NC(=O)C2CC(O)CN2C(=O)C(NC(=O)CCCCCCCCCCN2CCCC(Nc3ncc(Cl)c(Nc4ccccc4S(=O)(=O)C(C)C)n3)C2)C(C)(C)C)cc1 (stereo not drawn)  log2 fold change (22Rv1; RNA-seq, item: TSSK6 mRNA; concentration not given; relative to: DMSO): -2.1
COC1=C2CC(C)CC(OC)C(O)C(C)C=C(C)C(OC(N)=O)C(OC)C=CC=C(C)C(=O)NC(=CC1=O)C2=O (stereo not drawn)  log fold change (Rh30; ChIP-seq, item: H3K36me3 peak; concentration not given, GON7 intron chr14:93664800-93696999; relative to: untreated control): -0.502
CSCC[C@H](NC=O)C(=O)N[C@@H](CCCNC(=N)N)C(=O)N[C@H](C(=O)NCC(=O)N[C@@H](CC(N)=O)C(=O)N[C@@H](C)C(=O)N[C@@H](CC(N)=O)C(=O)NCC(=O)NCC(=O)N[C@@H](CCCCNC(=S)Nc1ccc2c(c1)C(=O)OC21c2ccc(O)cc2Oc2cc(O)ccc21)C(=O)O)[C@@H](C)O  fluorescence intensity increase (Escherichia coli BL21(DE3); confocal fluorescence microscopy; 1 µM, 3 h, FITC-labelled; relative to: control): 11 fold
COc1ccc(CNc2ccc3c(c2)S(=O)(=O)C=C3)cc1  viability (U-251 MG; resazurin; 5 µM, 24 h): 65%
COC(=O)c1cc(NC2=NC(=O)C(=Cc3ccc(C)cc3)S2)ccc1OC(C)=O  metabolite level (MCF7; GC-MS, item: Spermidine; 1 µM; relative to: DMSO): 0.11 fold change
O=C(C[Se]C(=O)c1cc2ccccc2s1)Nc1cccc(C(F)(F)F)c1  mean TGI (NCI60 ovarian subpanel; total growth inhibition, inhibitor; five-dose): 3.37 µM
CC(C)c1ccc(N(C)c2ccc3c(c2)OCC[C@H]3CNc2cnccc2C(=O)O)cc1  IC50 (SCC-4; cell viability; 7 days): 0.0105 µM
CCN(CC)CC(=O)Nc1cccc(-n2cc(-c3ccc4ccc(-c5cn(-c6cccc(NC(=O)CN(CC)CC)c6)nn5)cc4c3)nn2)c1  fold regulation (RCC4; PCR angiogenesis array, item: FGF2; 5 x IC50, 6 h, normoxia; relative to: untreated): -1.1
CC[C@H](CO)Nc1nc(NCc2ccc(-c3ccccn3)cc2)c2ncn(C(C)C)c2n1  log2 fold change (MOLT-4; TMT mass spectrometry proteomics, item: KDM5B protein; 1 µM, 1 h; relative to: DMSO): 1.31
Cn1ncc2cc(-c3cncc(Cl)c3N3CCC4(CCNC4=O)CC3)ccc21  log2 fold change (LS174T; gene expression, microarray, item: VLDLR mRNA; concentration not given, 4 h; relative to: untreated cells): 1.91
COC(=O)c1cc(NC2=NC(=O)C(=Cc3ccc(N(C)C)cc3)S2)ccc1OC(C)=O  metabolite level (MCF7; GC-MS, item: 11-Eicosenoic acid; 1 µM; relative to: DMSO): -0.74 fold change
COc1cccc(OC)c1-c1cc(C(=O)NC2(C(=O)O)C3CC4CC(C3)CC2C4)nn1-c1ccc(C(=O)N(C)CCCN(C)CCCN(C)C(=O)[C@H](CCCCNC(=O)[C@H](CC(C)C)NC(=O)C2OC2C(=O)O)NC(=O)CN2CCN(CC(=O)[O-])CCN(CC(=O)[O-])CCN(CC(=O)[O-])CC2)cc1C(C)C.[177Lu+3] (mixture of isomers)  internalized fraction (HT-29; concentration not given, 60 min; relative to: added activity): 4.68 ± 0.54%
O=C(C[Se]C(=O)c1ccccc1Nc1cccc(C(F)(F)F)c1)Nc1cccc(C(F)(F)F)c1  mean growth percent (NCI60 non-small-cell lung subpanel; cell growth; 10 µM, 48 h, one-dose): -94%
CCCCCCCCCCCCCCCC(=O)OCC(CSC[C@H](N)C(=O)N[C@@H](CO)C(=O)N[C@@H](CCCCN)C(=O)N[C@@H](CCCCN)C(=O)N[C@@H](CCCCN)C(=O)N[C@@H](CCCCN)C(=O)NCCCCCC(=O)N[C@@H](CCCCN)C(=O)N[C@@H](CC(C)C)C(=O)N[C@H](C(=O)N[C@@H](Cc1ccccc1)C(=O)N[C@@H](Cc1ccccc1)C(=O)N[C@@H](Cc1ccc2ccccc2c1)C(=O)O)C(C)C)OC(=O)CCCCCCCCCCCCCCC (stereo partly drawn)  relative protein level (BV-2; Western blot, item: MSR1; concentration not given; relative to: control): 1.28
Cc1cc(Cl)cc(-c2ccnc3cc(CN4C(=O)C5C(C4=O)C5(C)C)sc23)c1C[C@@H]1CNCCO1 (stereo partly drawn)  viability (CHP-212; SRB; 2.5 µM): 16.3%

A few entries again:
O=C(C[Se]C(=O)c1ccccc1Nc1cccc(C(F)(F)F)c1)Nc1cccc(C(F)(F)F)c1  mean growth percent (NCI60 non-small-cell lung subpanel; cell growth; 10 µM, 48 h, one-dose): -94%
O=[C]=[Mn-2]12(=[C]=O)(=[C]=O)[O]c3cc4c(cc3=[N+]1CCc1ccccc1)[O][Mn-2](=[C]=O)(=[C]=O)(=[C]=O)([N+]=4CCc1ccccc1)[n+]1ccc(cc1)C(=O)Oc1ccccc1OC(=O)c1cc[n+]2cc1  viability reduction (HEK293; MTT; 50 µM, 48 h, photolysed compound): 45%
O=C(Nc1nnc2c1c(-c1ccc(Cl)cc1)nc1sc(=Cc3ccco3)c(=O)n12)c1ccccc1 (mixture of isomers)  cell growth (SF-268; SRB; 10 µM, NCI60 single-dose screen; relative to: untreated): 42.2%
COC1CN([C@H]2CC[C@H]([C@@]3(C)Oc4c(Cl)cc(C(=O)NCc5c(SC)cc(C)[nH]c5=O)c(C)c4O3)CC2)C1  GI50 (J82; cell growth or viability, ATP luminescence; 12 days): > 10 µM
